# Experimental data gathered from unrelated publications.
# Each line is one published result; not all experiments were run side by side.
# Organism: Pseudomonas aeruginosa
SMILES,assay,test system,conditions,MIC
NC1CCCCc2c1[nH]c1ccc(Cl)c(Cl)c21 (stereo not shown),,PAO1,added: efflux pump inhibitor 12.5 µg/mL,32 µg/mL
N=C(N)c1ccc(OCCCCCOc2ccc(C(=N)N)cc2)cc1,,ATCC 27853,compound alone,> 200 µg/mL
NC[C@H]1O[C@H](O[C@H]2[C@H](O)[C@@H](O[C@H]3O[C@H](CO)[C@@H](O)[C@H](N)[C@H]3O)[C@H](N)C[C@@H]2N)[C@H](O)[C@@H](O)[C@@H]1O,broth microdilution,"PAO1, cation-adjusted Mueller-Hinton broth","16 h, 37 °C",32 µg/mL
CC(C)(O/N=C(\C(=O)N[C@@H]1C(=O)N2C(C(=O)[O-])=C(C[n+]3ccccc3)CS[C@H]12)c1csc(N)n1)C(=O)O,,PER-producing clinical isolate,,> 128 µg/mL
COc1cc(C(=O)Nc2ccc(C(=O)N[C@@H](CC(N)=O)C(=O)Nc3ccc(C(=O)Nc4ccc(C(=O)Nc5ccc(C(=O)O)cc5)c(O)c4OC(C)C)cc3)cc2)ccc1C#N,,PA14 ΔmexAB,,0.25 µg/mL
Cc1onc(-c2ccccc2)c1C(=O)N[C@@H]1C(=O)N2[C@@H]1SC(C)(C)[C@@H]2C(=O)O,,"CIP 27853, Mueller Hinton broth","overnight, 37 °C",16 µg/mL
CC[C@H](C)CCCCC(=O)N[C@@H](CCN)C(=O)N[C@H](C(=O)N[C@@H](CCN)C(=O)N[C@H]1CCNC(=O)[C@H]([C@@H](C)O)NC(=O)[C@H](CCN)NC(=O)[C@H](CCN)NC(=O)[C@H](CC(C)C)NC(=O)[C@@H](CC(C)C)NC(=O)[C@H](CCN)NC1=O)[C@@H](C)O,broth microdilution,"ATCC 27853, cation-adjusted Mueller-Hinton broth",,0.428 µM
O=C(Cc1ccccc1)N[C@@H]1C(=O)N2C(C(=O)O)=C(CSc3cccc4cccnc34)CS[C@H]12,,,,> 128 µg/mL
CCN1CCN(C(=O)N[C@@H](C(=O)N[C@@H]2C(=O)N3[C@@H]2SC(C)(C)[C@@H]3C(=O)O)c2ccccc2)C(=O)C1=O,broth microdilution,"clinical isolate, Mueller-Hinton broth","24 h, 37 °C",> 400 µM
CC(C)Oc1c(NC(=O)c2ccc(NC(=O)[C@H](CC(N)=O)NC(=O)c3ccc(NC(=O)c4ccc(C#N)c(F)c4)cc3)cc2)ccc(C(=O)Nc2ccc(C(=O)O)cc2)c1O,,PA14 ΔmexAB,,0.5 µg/mL
O=[N+]([O-])c1ccc2[nH]c(CNCC34CC5CC(CC(C5)C3)C4)nc2c1,,ATCC 27853,,> 128 µg/mL
CC1(C)S[C@@H]2[C@H](NC(=O)[C@H](N)c3ccccc3)C(=O)N2[C@H]1C(=O)O,,ATCC 27853,"18 h, 37 °C, dark",> 128 µM
CNC(C)C1CCC(N)C(OC2C(N)CC(N)C(OC3OCC(C)(O)C(NC)C3O)C2O)O1 (stereo not shown),,"clinical isolate P.A19, RPMI with 10% FBS",37 °C,32 µM
O=C(O)c1cn(C2CC2)c2cc(N3CCNCC3)c(F)cc2c1=O,broth microdilution,,,0.063 µg/mL
NC[C@H]1O[C@H](O[C@H]2[C@H](O)[C@@H](O[C@H]3O[C@H](CO)[C@@H](O)[C@H](N)[C@H]3O)[C@H](N)C[C@@H]2N)[C@H](O)[C@@H](O)[C@@H]1O,broth microdilution,C5 clinical isolate,,32 µM
CCN1CCN(C(=O)N[C@@H](C(=O)N[C@@H]2C(=O)N3[C@@H]2SC(C)(C)[C@@H]3C(=O)O)c2ccccc2)C(=O)C1=O,,S13-35 PER-producing isolate,,> 128 µg/mL
C[C@@H](O)[C@H]1C(=O)N2C(C(=O)O)=C(SCCN=CN)C[C@H]12,"broth microdilution, MH medium",KCCM 11328,"16 h, 37 °C, growth inhibition over 99%",1 µM
Cn1cc(NC(=O)C(CC(N)=O)NC(=O)c2ccc(NC(=O)c3ccc(C#N)cc3)cc2)cc1-c1nc2ccc(C(=O)Nc3ccc(C(=O)O)cc3)c(O)c2[nH]1 (stereo not shown),,PA14 ΔmexAB,,> 64 µg/mL
O=C(Cc1ccccc1)N[C@@H]1C(=O)N2C(C(=O)O)=C(CSc3cccc4cccnc34)CS(=O)(=O)[C@H]12,,27853,,> 128 µg/mL
N#Cc1ccc2[nH]c(CNCC34CC5CC(CC(C5)C3)C4)nc2c1,,ATCC 27853,,> 128 µg/mL
CO/N=C(\C(=O)N[C@@H]1C(=O)N2C(C(=O)O)=C(COC(C)=O)CS[C@H]12)c1csc(N)n1,broth microdilution,"clinical isolate, Mueller-Hinton broth","24 h, 37 °C",> 400 µM
C=C/C=C(\C)CC[C@H]1C[C@H](O)CC(=O)O1,broth microdilution,KCCM 11321,"16 h, 37 °C",64 µg/mL
CC[C@H](C)[C@H](NC(=O)[C@H](CCC(=O)O)NC(=O)[C@H](CS)NC(=O)[C@@H](NC(=O)CNC(=O)[C@H](CO)NC(=O)[C@H](CC(C)C)NC(=O)[C@H](CO)NC(=O)[C@@H](N)CCC(=O)O)C(C)C)C(=O)N[C@@H](CO)C(=O)NCC(=O)N[C@@H](CCCNC(=N)N)C(=O)N[C@@H](CC(C)C)C(=O)N[C@@H](Cc1ccc(O)cc1)C(=O)N[C@@H](CCCNC(=N)N)C(=O)N[C@@H](CC(C)C)C(=O)N[C@@H](CS)C(=O)N[C@@H](CS)C(=O)N[C@@H](CCCNC(=N)N)C(=O)O,broth turbidity,ATCC 27853,,> 100 µM
CN(C)c1ccc2nc3ccc(=[N+](C)C)cc-3sc2c1,,"ATCC BAA-2108, resistant","18 h, 37 °C, LED light 10 min, 1.57 mW",> 128 µM
N=C(N)c1ccc(OCc2ccccc2COc2ccc(C(=N)N)cc2)cc1,,ATCC 27853,compound alone,> 200 µg/mL

# For quick reference, copied from above:
SMILES,assay,test system,conditions,MIC
O=[N+]([O-])c1ccc2[nH]c(CNCC34CC5CC(CC(C5)C3)C4)nc2c1,,ATCC 27853,,> 128 µg/mL
CC1(C)S[C@@H]2[C@H](NC(=O)[C@H](N)c3ccccc3)C(=O)N2[C@H]1C(=O)O,,ATCC 27853,"18 h, 37 °C, dark",> 128 µM
